# Measurements collected from several papers.
# Protocols differ between the studies behind these lines. Several values in a cell are separate wells, animals, samples, runs or records. ± gives the spread as reported.
SMILES,assay,test system,setting,scale,endpoint,result
CN1CCN(c2ccc(OC(F)(F)F)c(Nc3ncc4c(n3)-c3c(c(C(N)=O)nn3CCO)CC4)c2)CC1,LC-MS/MS,"human, plasma","oral, 12 mg/m2, 1 h post-dose",,plasma concentration,0.0331 µg/mL and 0.0999 µg/mL and 0.0866 µg/mL
Cc1cc(C)c(CNC(=O)c2cc(Cl)c3c(c2C)O[C@@](C)([C@H]2CC[C@H](N(C)C)CC2)O3)c(=O)[nH]1,ultracentrifugation,"human, plasma","160 min, clinically relevant concentrations",,plasma protein binding,> 94%
Cn1cc(Nc2nccc(-c3ccc4c(c3)CN(C3COC3)CC[C@H]4NC(=O)c3cn(C(C)(C)C)nn3)n2)cn1,,"human, whole blood","50 mg twice daily, day 7",relative to: pre-dose baseline,plasma cell count change,113%
Cc1cc(-c2nccc3c2ccn3CC(=O)Nc2ccc(-c3cnccn3)cn2)ccn1,,"human, plasma","oral, 7 mg single dose",,plasma half-life,~12 h
CC(C)CCC[C@@H](C)[C@H]1CC[C@H]2[C@@H]3C(O)CC4=CC(=O)CC[C@]4(C)[C@H]3CC[C@]12C (stereo partly drawn),,"healthy human volunteers, plasma","oral, dose not given, 0 h, control phase, probe drugs alone",,plasma concentration,0.0902 ± 0.0182 µM
N#Cc1ccc(C(c2ccc(C#N)cc2)n2cncn2)cc1,,"human patients, plasma","oral, 5 mg daily, day of surgery",,plasma concentration,0.0672 ± 0.01 µg/mL
C[C@H](CCC(=O)NCC(=O)O)[C@H]1CC[C@H]2[C@@H]3CC[C@@H]4C[C@H](OS(=O)(=O)O)CC[C@]4(C)[C@H]3CC[C@]12C,,"healthy human volunteers, plasma","dose not given, 0 h, baseline phase, no drug",,plasma concentration,0.84 ± 0.254 µM
Cc1ccc(C(=O)N(CCCN)C(c2nc3snc(C)c3c(=O)n2Cc2ccccc2)C(C)C)cc1 (stereo not drawn),,"human patients, plasma","intravenous, 2 mg/day, day 3 of induction course, geometric mean",,plasma concentration at 24 h,0.0029 µg/mL
O=C(O)CCCCCCCCCCCCCCC(=O)O,,"healthy human volunteers, plasma","dose not given, 0 h, baseline phase, no drug",,plasma concentration,0.155 ± 0.029 µM
COc1cc2c(cc1OC)CN(CCc1ccc(NC(=O)c3cc(OC)c(OC)cc3NC(=O)c3cnc4ccccc4c3)cc1)CC2,,"human, plasma","intravenous, 5.9 mg/kg, 123 min",,plasma concentration,2.52 µM
C/C=C/C[C@H](C)[C@@H](OC)[C@@H](C)[C@H](O)C[C@H]1OC(=O)C=C[C@H]1CC,,human,,,plasma protein binding,87%
C[C@H](CCC(=O)O)[C@H]1CC[C@H]2[C@@H]3[C@H](O)C[C@@H]4C[C@H](O)CC[C@]4(C)[C@H]3C[C@H](O)[C@]12C,,"healthy human volunteers, plasma","dose not given, 0 h, control phase, probe drugs alone",,plasma concentration,0.0772 ± 0.0417 µM

# For quick reference, copied from above:
SMILES,assay,test system,setting,scale,endpoint,result
C[C@H](CCC(=O)NCC(=O)O)[C@H]1CC[C@H]2[C@@H]3CC[C@@H]4C[C@H](OS(=O)(=O)O)CC[C@]4(C)[C@H]3CC[C@]12C,,"healthy human volunteers, plasma","dose not given, 0 h, baseline phase, no drug",,plasma concentration,0.84 ± 0.254 µM
